Measurements pooled from the literature.
Protocols differ between the studies behind these lines. pIC50, pKd, pKi: −log10 of the molar value.
Target: Carbonic anhydrase 9 (CA9, Homo sapiens, UniProt Q16790)

SMILES	effect on	action	technique	pH	quantity	result
CCCCCCCCCCCC(=O)NC1CCOC1=O (centres unmarked)	enzyme activity	inhibitor	stopped-flow		pKi	5.00
CC[C@H](C)[C@H](N)C(=O)NS(=O)(=O)CC(=O)N[C@]1(C(=O)O)[C@@H]2CN(C)C=C(C(N)=O)[C@@H]2C[C@@H]1O				pH 7.5	pKi	7.20
Cc1cc(C(=O)N(CC(=O)Nc2ccc(-c3cn(C)nn3)cc2F)Cc2ccc(Cl)cc2)ccc1S(N)(=O)=O	enzyme activity	inhibitor			pIC50	7.92
CCCCCCC(=O)N[C@H]1CCOC1=O	enzyme activity	inhibitor	stopped-flow		pKi	4.68
Cc1cc(C(=O)CN2CCN(C(=O)c3cccc(F)c3)CC2)c(C)n1-c1ccc(S(N)(=O)=O)cc1	enzyme activity	inhibitor			pIC50	7.62
CN1C=C(C(N)=O)[C@@H]2C[C@H](O)[C@@](NC(=O)CS(N)(=O)=O)(C(=O)O)[C@@H]2C1	enzyme activity	inhibitor	absorbance	pH 7.5	pIC50	< 6.00
NS(=O)(=O)c1cc(C(=O)NCCCC(=O)O)c(NC2CCCCC2)cc1Cl				pH 7	pKd	7.19
CCCCCCC1CCCC(=O)O1 (centres unmarked)	enzyme activity	inhibitor	stopped-flow		pKi	5.12
NS(=O)(=O)c1ccc(NC(=O)c2ccc(Cl)c(S(N)(=O)=O)c2)cc1	enzyme activity	inhibitor			pIC50	7.68
C[C@@]1(C(=O)O)[C@@H](O)CC[C@]2(C)c3cc4c(cc3CC[C@@H]12)[nH]c1ccc(S(=O)(=O)n2c3ccccc3c3cc5c(cc32)CC[C@H]2[C@](C)(C(=O)O)[C@@H](O)CC[C@]52C)cc14				pH 7.5	pKi	6.95
N#C[Se]CCCCCCOc1ccc2c(-c3ccccc3)cc(=O)oc2c1	enzyme activity	inhibitor	stopped-flow		pKi	6.88
NS(=O)(=O)c1ccc(NC(=O)c2cc3sccc3n2Cc2ccc(Cl)cc2)cc1	enzyme activity	inhibitor			pIC50	7.74
CC[C@H](C)[C@H](N)C(=O)NS(=O)(=O)CC(=O)N[C@@]1(C(=O)O)[C@@H](OC(=O)[C@@H](N)[C@@H](C)c2ccccc2)C[C@H]2C(C(N)=O)=CN(C)C[C@H]21	enzyme activity	inhibitor	absorbance	pH 7.5	pIC50	7.00
Cc1cc(=O)oc2cc(OCCCCCCSC#N)ccc12	enzyme activity	inhibitor	stopped-flow		pKi	7.75

Repeated from above:
SMILES	effect on	action	technique	pH	quantity	result
CCCCCCCCCCCC(=O)NC1CCOC1=O (centres unmarked)	enzyme activity	inhibitor	stopped-flow		pKi	5.00
